Assay results pooled from the literature.
Lines come from different studies, so protocols differ. “And” joins repeats or separate records; there may be more than shown. pIC50: −log10 of the molar value.

| SMILES | tested on | test | system | conditions | how to read | measurement | result |
| --- | --- | --- | --- | --- | --- | --- | --- |
| CN1CCCNC(=O)c2cccc(c2)C(=O)NCCCN(C)CCCNc2cccc3c2C(=O)c2cccc(c2C3=O)NCCC1 | SAS | RNA-Seq, refers to: IRAK4 mRNA |  | 1 µM, 6 h | relative to: untreated cells | log2 fold change | 1.55 |
| Nc1ncc(-c2cc(-c3cnn(CC(F)(F)F)c3)ncc2F)nc1C(=O)NC1CNCC(F)C1 (stereo not shown) | ERK4 | KINOMEscan |  | 1 µM | relative to: DMSO control | remaining binding | 96% |
| COC1CN([C@H]2CC[C@H]([C@@]3(C)Oc4c(Cl)cc(C(=O)NCc5c(SC)cc(C)[nH]c5=O)c(C)c4O3)CC2)C1 |  | RNA-seq, refers to: MUSTN1 | human, whole blood | dose not given, 24 h | relative to: pretreatment baseline | log2 fold change | 2.53 |
| CC(C)c1ccc(N(C)c2ccc3c(c2)OCC[C@H]3CNc2cnccc2C(=O)O)cc1 | UACC-812 | cell growth or viability, ATP luminescence |  | 7 days |  | pIC50 | ≤ 5.00 |
| CCN(CC)CC(=O)Nc1cccc(-n2cc(-c3ccc4ccc(-c5cn(-c6cccc(NC(=O)CN(CC)CC)c6)nn5)cc4c3)nn2)c1 | RCC4 | PCR angiogenesis array, refers to: IL1B |  | 5 x IC50, 4 h, normoxia | relative to: untreated | fold regulation | -1.71 |
| C=C(NC(=O)c1csc(-c2nc3c(cc2O)-c2nc(cs2)C(=O)NC(C(C)O)C(=O)NC(=C(C)OC)c2nc(cs2)C(=O)NC2c4nc(cs4)C(=O)NC(COC(=O)c4c5c6c(cccc6n4O)COC(=O)C(OC4CC(C)(O)C(N(C)C)C(C)O4)C2OC5)c2nc-3cs2)n1)C(N)=O (stereo not shown) | Staphylococcus |  | MRSE-37, mouse systemic infection | intravenous | survival | ED50 | 1.91 mg/kg |
| CCOc1cncc(-c2ccc(NC(=O)C3(c4ccnc(NS(=O)(=O)C5CC5)n4)CCOCC3)nc2)n1 | lung cancer | cell viability, CellTiter-Glo | DMSO 0.1% | 72 h, line code 430 |  | pIC50 | 7.49 |
| C=CC(=O)Nc1cccc(Cn2ncc3cnc(Nc4cnn(CCOC)c4)nc32)c1 | FRK human | binding, KINOMEscan |  | 100 nM | lower = stronger binding | percent of control | 52% |
| COc1cc(CN(C)CC2CCCN(CCc3ccccc3F)C2)cc(Cl)c1OC (stereo not shown) | Trypanosoma cruzi | reporter mRNA translation, inhibitor, refers to: Renilla luciferase mRNA | cell-free extract | concentration not given, test 1 | relative to: positive over negative control | translation activity | 96.9% and 82.5% |
| Cc1ncsc1-c1ccc(C(C)NC(=O)C2CC(O)CN2C(=O)C(NC(=O)CCCCCCCCCCN2CCCC(Nc3ncc(Cl)c(Nc4ccccc4S(=O)(=O)C(C)C)n3)C2)C(C)(C)C)cc1 (stereo not shown) | 22Rv1 | RNA-seq, refers to: TNFRSF12A mRNA |  | concentration not given | relative to: DMSO | log2 fold change | -1.36 |
| Cn1ncc2cc(-c3cncc(Cl)c3N3CCC4(CCNC4=O)CC3)ccc21 | LS174T | microarray, refers to: PAH |  | concentration not given, 4 h | relative to: untreated cells | fold change in expression | 1.3 |
| O=C(NN(c1ccccc1)c1ccccc1)c1ccc([N+](=O)[O-])o1 | Trypanosoma cruzi | reporter mRNA translation, inhibitor, refers to: Renilla luciferase mRNA | cell-free extract | concentration not given, test 3 | relative to: positive over negative control | translation activity | 97.5% |
| CNS(=O)(=O)Nc1nccc(Cc2c(C)c3ccc(Oc4ncccc4F)cc3oc2=O)c1F | U266B1 | cell viability, CellTiter-Glo |  | 7 days |  | pIC50 | < 6.00 |

For quick reference, copied from above:
| SMILES | tested on | test | system | conditions | how to read | measurement | result |
| --- | --- | --- | --- | --- | --- | --- | --- |
| CNS(=O)(=O)Nc1nccc(Cc2c(C)c3ccc(Oc4ncccc4F)cc3oc2=O)c1F | U266B1 | cell viability, CellTiter-Glo |  | 7 days |  | pIC50 | < 6.00 |
| C=CC(=O)Nc1cccc(Cn2ncc3cnc(Nc4cnn(CCOC)c4)nc32)c1 | FRK human | binding, KINOMEscan |  | 100 nM | lower = stronger binding | percent of control | 52% |
